Measurements collected from several papers.
Compare with care: the assays were run in different laboratories.
Organism: Staphylococcus aureus

CC(=O)NC[C@H]1CN(c2ccc(N3CCN(C(=O)CN)CC3)c(F)c2)C(=O)O1
MIC (broth dilution; Newman): ~50 µM

CC[C@H]1OC(=O)[C@H](C)[C@@H](OC(=O)Cc2ccccc2[N+](=O)[O-])[C@H](C)[C@@H](O[C@@H]2O[C@H](C)C[C@H](N(C)C)[C@H]2O)[C@](C)(OC)C[C@@H](C)C(=O)[C@H](C)[C@@H](O)[C@]1(C)O
MIC (microbial growth; BAA976): 1 µg/mL

CN[C@H](CC(C)C)C(=O)N[C@H]1C(=O)N[C@@H](CC(N)=O)C(=O)N[C@H]2C(=O)N[C@H]3C(=O)N[C@H](C(=O)N[C@H](C(=O)O)c4cc(O)cc(O)c4-c4cc3ccc4O)[C@H](O)c3ccc(c(Cl)c3)Oc3cc2cc(c3O[C@@H]2O[C@H](CO)[C@@H](O)[C@H](O)[C@H]2O[C@H]2C[C@](C)(NCc3ccc(-c4ccc(Cl)cc4)cc3)[C@H](O)[C@H](C)O2)Oc2ccc(cc2Cl)[C@H]1O
MIC (VRS2 (VanA VRSA)): 4 µg/mL

CC[C@H]1OC(=O)[C@H](C)[C@@H](OC(=O)Cc2ccc(OC(F)(F)F)cc2)[C@H](C)[C@@H](O[C@@H]2O[C@H](C)C[C@H](N(C)C)[C@H]2O)[C@](C)(OC)C[C@@H](C)C(=O)[C@H](C)[C@@H](O)[C@]1(C)O
MIC (ATCC 43300 MRSA): > 64 µg/mL

Oc1c(Br)cc(Br)c2nc3cc(Cl)ccc3nc12
MIC (129 MRSA clinical isolate): 0.15 µM

COc1ccc(/N=N/C(=S)N2CCOCC2)cc1
MIC (microbial growth, broth dilution; ATCCBAA44 MRSA; 24 h): > 50 µM

CCCCCC[N+](C)(C)CCCCCCCCCCOc1cc(OCCCCCCCCCC[N+](C)(C)CCCCCC)cc(OCCCCCCCCCC[N+](C)(C)CCCCCC)c1.[Br-].[Br-].[Br-]
MIC (CA-MRSA USA300-0114): 1 µM

CC[C@H]1OC(=O)[C@H](C)[C@@H](OC(=O)c2ccc(N)cc2)[C@H](C)[C@@H](O[C@@H]2O[C@H](C)C[C@H](N(C)C)[C@H]2O)[C@](C)(OC)C[C@@H](C)C(=O)[C@H](C)[C@@H](O)[C@]1(C)O
MIC (DSM 20231 MSSA): > 256 µg/mL

CC1C=CC=CC(C)C2C=CC3CC(C)(O)C(Cl)C(C)C3C2C(=O)C(Cl)(Cl)C(=O)C(C)C(=O)O1 (centres unmarked)
MIC (MRSA clinical isolate; OXA resistant): 0.1 µg/mL

O=[N+]([O-])c1cc(Cl)c2cccnc2c1O
MIC (microbial growth, broth dilution; ATCC29213): 4 µg/mL

CCC(CC)c1cc(CCN2CCCN(S(C)(=O)=O)CC2)nc(-c2ccccn2)n1
MIC (microbial growth, broth dilution; ATCC29213): > 16 µg/mL

CCCCCCCCCC[N+](C)(C)CCCCCCOc1cc(OCCCCCC[N+](C)(C)CCCCCCCCCC)cc(OCCCCCC[N+](C)(C)CCCCCCCCCC)c1.[Br-].[Br-].[Br-]
MIC (HA-MRSA ATCC 33591): 2 µM

CCCCCC(=O)Oc1c(C)c(OC)c2c(c1C)OC(=O)[C@@H](CCCC)[C@]2(O)/C=C/c1ccccc1 (relative stereo)
MIC (microbial growth, broth dilution; ATCC25923): 5000 µg/mL

C#CCOc1ccc(CN[C@@]2(C)C[C@H](O[C@H]3[C@H](Oc4c5cc6cc4Oc4ccc(cc4Cl)[C@@H](O)[C@@H](NC(=O)[C@@H](CC(C)C)NC)C(=O)N[C@@H](CC(N)=O)C(=O)N[C@H]6C(=O)N[C@H]4C(=O)N[C@H](C(=O)N[C@H](C(=O)NCC(N)=O)c6cc(O)cc(O)c6-c6cc4ccc6O)[C@H](O)c4ccc(c(Cl)c4)O5)O[C@H](CO)[C@@H](O)[C@@H]3O)O[C@@H](C)[C@H]2O)cc1OC
MIC (broth microdilution; MRSA USA300, cation-adjusted Mueller-Hinton broth; 20 to 24 h, 37 °C, 0.002% polysorbate 80): 0.5 µg/mL

CCCCCC[N+](C)(C)CCCCCCOc1cc(OCCCCCC[N+](C)(C)CCCCCC)cc(OCCCCCC[N+](C)(C)CCCCCC)c1.[Br-].[Br-].[Br-]
MIC (SH1000 MSSA): 0.5 µM

CC[C@H]1OC(=O)[C@H](C)[C@@H](OC(=O)Cc2cccc(Cl)c2)[C@H](C)[C@@H](O[C@@H]2O[C@H](C)C[C@H](N(C)C)[C@H]2O)[C@](C)(OC)C[C@@H](C)C(=O)[C@H](C)[C@@H](O)[C@]1(C)O
MIC (microbial growth; BAA976): 4 µg/mL

CCOc1c(NC(=O)c2ccc(NC(=O)c3ccc(NC(=O)[C@H](Cc4c[nH]nn4)NC(=O)c4ccc(NC(=O)/C(C)=C/c5ccc(O)cc5)cc4)cc3)c(OC)c2O)ccc(C(=O)O)c1O
MIC (broth microdilution; ciprofloxacin-resistant): 0.125 µg/mL

CCCCCCCCn1cc[n+](CCCCCCOc2cc(OCCCCCC[n+]3ccn(CCCCCCCC)c3)cc(OCCCCCC[n+]3ccn(CCCCCCCC)c3)c2)c1.[Br-].[Br-].[Br-]
MIC (CA-MRSA USA300-0114): 1 µM

COc1nc(C(=O)O)ccc1NC(=O)c1ccc(NC(=O)c2ccc(NC(=O)[C@H](Cc3c[nH]nn3)NC(=O)c3ccc(NC(=O)/C(C)=C/c4ccc(O)cc4)cc3)cc2)c(OC)c1O
MIC (broth microdilution; ciprofloxacin-sensitive): 16 µg/mL

CCCC/C=C/C(=O)N[C@@H](Cc1cc(F)cc(F)c1)C(=O)N[C@@H]1C(=O)N2CCC[C@H]2C(=O)N2CC[C@H](C)C[C@H]2C(=O)N[C@@H](C)C(=O)N2CCC[C@H]2C(=O)O[C@H]1C
MIC (microbial growth, broth dilution): 0.024 µg/mL

COc1cc(C(=O)O)ccc1NC(=O)c1ccc(NC(=O)c2ccc(NC(=O)[C@H](Cc3c[nH]nn3)NC(=O)c3ccc(NC(=O)/C(C)=C/c4ccc(O)cc4)cc3)cc2)cc1O
MIC (broth microdilution; ciprofloxacin-resistant): 32 µg/mL

CCCCCCCCCCCCCCCCCCn1cc(CN(CCC(=O)NCCN(CCC(=O)NCCN(CCC(=O)NCCN(C)C)CCC(=O)NCCN(C)C)CCC(=O)NCCN(CCC(=O)NCCN(C)C)CCC(=O)NCCN(C)C)CCC(=O)NCCN(CCC(=O)NCCN(CCC(=O)NCCN(C)C)CCC(=O)NCCN(C)C)CCC(=O)NCCN(CCC(=O)NCCN(C)C)CCC(=O)NCCN(C)C)nn1
MIC (ATCC 25904 MSSA, LB broth; 18 h): > 96 µg/mL

CCCCCCCCn1cc[n+](CCCCCCCCCCOc2cc(OCCCCCCCCCC[n+]3ccn(CCCCCCCC)c3)cc(OCCCCCCCCCC[n+]3ccn(CCCCCCCC)c3)c2)c1.[Br-].[Br-].[Br-]
MIC (SH1000 MSSA): 4 µM

A few entries again:
CCCCCC[N+](C)(C)CCCCCCCCCCOc1cc(OCCCCCCCCCC[N+](C)(C)CCCCCC)cc(OCCCCCCCCCC[N+](C)(C)CCCCCC)c1.[Br-].[Br-].[Br-]
MIC (CA-MRSA USA300-0114): 1 µM

CC[C@H]1OC(=O)[C@H](C)[C@@H](OC(=O)c2ccc(N)cc2)[C@H](C)[C@@H](O[C@@H]2O[C@H](C)C[C@H](N(C)C)[C@H]2O)[C@](C)(OC)C[C@@H](C)C(=O)[C@H](C)[C@@H](O)[C@]1(C)O
MIC (DSM 20231 MSSA): > 256 µg/mL
